Published values from different studies.
Every numbered part comes from another study and shows a few of its results, in no order. Values joined by “and” are separate records of one study, mostly repeats; a detail may differ.
Chain of UniProt P15056 (whole entry, looked up): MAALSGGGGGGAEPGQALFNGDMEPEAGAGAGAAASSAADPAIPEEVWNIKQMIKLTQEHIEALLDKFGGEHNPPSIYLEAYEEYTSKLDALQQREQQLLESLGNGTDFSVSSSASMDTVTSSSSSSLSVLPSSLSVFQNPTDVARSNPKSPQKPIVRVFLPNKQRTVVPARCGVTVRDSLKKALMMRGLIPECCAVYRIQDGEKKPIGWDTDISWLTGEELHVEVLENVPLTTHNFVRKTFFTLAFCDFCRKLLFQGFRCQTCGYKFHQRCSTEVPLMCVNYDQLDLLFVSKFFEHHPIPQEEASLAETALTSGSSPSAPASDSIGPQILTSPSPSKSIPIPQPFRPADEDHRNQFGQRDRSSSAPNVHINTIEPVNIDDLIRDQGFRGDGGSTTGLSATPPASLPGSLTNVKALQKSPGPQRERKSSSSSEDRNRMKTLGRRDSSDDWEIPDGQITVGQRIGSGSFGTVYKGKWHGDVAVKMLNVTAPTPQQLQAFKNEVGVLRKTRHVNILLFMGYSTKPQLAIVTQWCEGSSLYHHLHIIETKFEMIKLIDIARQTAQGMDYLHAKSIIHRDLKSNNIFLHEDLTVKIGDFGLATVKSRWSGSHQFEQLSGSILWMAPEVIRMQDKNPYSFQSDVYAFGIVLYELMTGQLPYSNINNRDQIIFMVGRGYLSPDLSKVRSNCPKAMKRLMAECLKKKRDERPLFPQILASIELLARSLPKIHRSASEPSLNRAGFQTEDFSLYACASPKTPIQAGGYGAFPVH
Chain of UniProt O14976 (whole entry, looked up): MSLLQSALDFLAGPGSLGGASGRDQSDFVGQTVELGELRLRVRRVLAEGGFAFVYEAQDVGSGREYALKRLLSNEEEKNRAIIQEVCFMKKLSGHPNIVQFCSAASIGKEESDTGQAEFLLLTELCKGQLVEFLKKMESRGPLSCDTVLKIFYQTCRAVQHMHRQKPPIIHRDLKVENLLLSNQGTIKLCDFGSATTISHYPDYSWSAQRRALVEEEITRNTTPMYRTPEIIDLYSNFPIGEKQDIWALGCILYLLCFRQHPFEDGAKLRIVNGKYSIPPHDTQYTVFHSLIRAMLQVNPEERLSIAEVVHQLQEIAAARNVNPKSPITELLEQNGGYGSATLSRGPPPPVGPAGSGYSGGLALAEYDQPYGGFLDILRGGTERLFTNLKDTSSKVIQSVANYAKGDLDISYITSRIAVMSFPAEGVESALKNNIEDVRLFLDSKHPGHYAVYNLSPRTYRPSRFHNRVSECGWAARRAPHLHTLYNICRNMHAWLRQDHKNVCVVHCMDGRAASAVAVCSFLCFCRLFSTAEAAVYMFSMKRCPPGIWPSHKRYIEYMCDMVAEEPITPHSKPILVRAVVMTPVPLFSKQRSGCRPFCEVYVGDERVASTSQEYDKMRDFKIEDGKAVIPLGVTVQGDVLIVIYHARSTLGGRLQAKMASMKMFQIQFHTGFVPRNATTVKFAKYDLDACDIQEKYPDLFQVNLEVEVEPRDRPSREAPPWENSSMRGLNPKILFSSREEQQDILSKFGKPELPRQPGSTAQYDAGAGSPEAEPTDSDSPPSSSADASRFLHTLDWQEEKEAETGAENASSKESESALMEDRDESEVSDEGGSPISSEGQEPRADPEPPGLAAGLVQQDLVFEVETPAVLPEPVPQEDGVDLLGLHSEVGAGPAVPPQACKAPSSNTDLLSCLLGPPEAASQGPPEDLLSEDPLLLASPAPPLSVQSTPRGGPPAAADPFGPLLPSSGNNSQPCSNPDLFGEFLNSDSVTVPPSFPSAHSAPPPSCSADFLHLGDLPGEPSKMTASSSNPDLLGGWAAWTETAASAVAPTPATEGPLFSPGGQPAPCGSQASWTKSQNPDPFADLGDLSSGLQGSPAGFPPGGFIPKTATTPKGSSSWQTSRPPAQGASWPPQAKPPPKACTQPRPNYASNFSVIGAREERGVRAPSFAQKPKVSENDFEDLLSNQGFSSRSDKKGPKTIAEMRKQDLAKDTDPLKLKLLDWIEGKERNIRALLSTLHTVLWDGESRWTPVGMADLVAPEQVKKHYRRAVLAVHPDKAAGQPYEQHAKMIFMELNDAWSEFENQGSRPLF
Chain of UniProt Q9BUB5 (whole entry, looked up): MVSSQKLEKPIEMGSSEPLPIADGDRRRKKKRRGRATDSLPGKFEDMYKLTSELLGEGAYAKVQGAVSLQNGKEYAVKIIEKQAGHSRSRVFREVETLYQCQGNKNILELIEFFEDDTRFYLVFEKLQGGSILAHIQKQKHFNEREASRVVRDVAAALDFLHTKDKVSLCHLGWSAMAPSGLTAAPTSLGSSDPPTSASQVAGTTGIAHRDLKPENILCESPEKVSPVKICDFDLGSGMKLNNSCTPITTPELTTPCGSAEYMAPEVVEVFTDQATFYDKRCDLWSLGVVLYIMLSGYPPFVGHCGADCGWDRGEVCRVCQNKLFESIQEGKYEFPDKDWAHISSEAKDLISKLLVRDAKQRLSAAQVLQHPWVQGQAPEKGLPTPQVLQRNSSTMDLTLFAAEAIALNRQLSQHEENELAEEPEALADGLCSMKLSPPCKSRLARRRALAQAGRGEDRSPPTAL
Chain of UniProt O43293 (whole entry, looked up): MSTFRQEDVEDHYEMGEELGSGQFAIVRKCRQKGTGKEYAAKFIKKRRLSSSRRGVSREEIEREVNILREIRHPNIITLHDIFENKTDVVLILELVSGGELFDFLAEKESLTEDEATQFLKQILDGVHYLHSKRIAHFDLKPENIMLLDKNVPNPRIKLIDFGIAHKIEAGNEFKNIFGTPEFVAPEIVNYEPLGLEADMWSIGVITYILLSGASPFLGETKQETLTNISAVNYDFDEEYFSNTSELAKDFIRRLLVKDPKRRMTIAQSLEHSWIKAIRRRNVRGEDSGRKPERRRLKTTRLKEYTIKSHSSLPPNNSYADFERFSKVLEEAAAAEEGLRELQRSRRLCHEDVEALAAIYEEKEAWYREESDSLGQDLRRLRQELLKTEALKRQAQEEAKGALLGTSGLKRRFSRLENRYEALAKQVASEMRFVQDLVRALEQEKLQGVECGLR

Block 1
SMILES: C[C@@H]1CN(c2ccc(-c3cc(C(=O)NCCOCCOCCOCCOCCNC(=O)/C=C/c4[nH]cc(C(=O)N[C@@H](CC(N)=O)c5ccc(F)c(Cl)c5)c4-c4ccc(Cl)cc4F)ccc3F)cc2NC(=O)c2c[nH]c(=O)cc2C(F)(F)F)C[C@H](C)N1C
Observed: thermal unfolding
Technique: differential scanning fluorimetry
Tested at: 5.5 µM
Reading: higher = more unfolded
WDR5: WD repeat-containing protein 5 (WDR5, Homo sapiens, UniProt P61964)
DCAF1: DDB1- and CUL4-associated factor 1 (DCAF1, Homo sapiens, UniProt Q9Y4B6)
Chain of UniProt Q9Y4B6 (whole entry, looked up): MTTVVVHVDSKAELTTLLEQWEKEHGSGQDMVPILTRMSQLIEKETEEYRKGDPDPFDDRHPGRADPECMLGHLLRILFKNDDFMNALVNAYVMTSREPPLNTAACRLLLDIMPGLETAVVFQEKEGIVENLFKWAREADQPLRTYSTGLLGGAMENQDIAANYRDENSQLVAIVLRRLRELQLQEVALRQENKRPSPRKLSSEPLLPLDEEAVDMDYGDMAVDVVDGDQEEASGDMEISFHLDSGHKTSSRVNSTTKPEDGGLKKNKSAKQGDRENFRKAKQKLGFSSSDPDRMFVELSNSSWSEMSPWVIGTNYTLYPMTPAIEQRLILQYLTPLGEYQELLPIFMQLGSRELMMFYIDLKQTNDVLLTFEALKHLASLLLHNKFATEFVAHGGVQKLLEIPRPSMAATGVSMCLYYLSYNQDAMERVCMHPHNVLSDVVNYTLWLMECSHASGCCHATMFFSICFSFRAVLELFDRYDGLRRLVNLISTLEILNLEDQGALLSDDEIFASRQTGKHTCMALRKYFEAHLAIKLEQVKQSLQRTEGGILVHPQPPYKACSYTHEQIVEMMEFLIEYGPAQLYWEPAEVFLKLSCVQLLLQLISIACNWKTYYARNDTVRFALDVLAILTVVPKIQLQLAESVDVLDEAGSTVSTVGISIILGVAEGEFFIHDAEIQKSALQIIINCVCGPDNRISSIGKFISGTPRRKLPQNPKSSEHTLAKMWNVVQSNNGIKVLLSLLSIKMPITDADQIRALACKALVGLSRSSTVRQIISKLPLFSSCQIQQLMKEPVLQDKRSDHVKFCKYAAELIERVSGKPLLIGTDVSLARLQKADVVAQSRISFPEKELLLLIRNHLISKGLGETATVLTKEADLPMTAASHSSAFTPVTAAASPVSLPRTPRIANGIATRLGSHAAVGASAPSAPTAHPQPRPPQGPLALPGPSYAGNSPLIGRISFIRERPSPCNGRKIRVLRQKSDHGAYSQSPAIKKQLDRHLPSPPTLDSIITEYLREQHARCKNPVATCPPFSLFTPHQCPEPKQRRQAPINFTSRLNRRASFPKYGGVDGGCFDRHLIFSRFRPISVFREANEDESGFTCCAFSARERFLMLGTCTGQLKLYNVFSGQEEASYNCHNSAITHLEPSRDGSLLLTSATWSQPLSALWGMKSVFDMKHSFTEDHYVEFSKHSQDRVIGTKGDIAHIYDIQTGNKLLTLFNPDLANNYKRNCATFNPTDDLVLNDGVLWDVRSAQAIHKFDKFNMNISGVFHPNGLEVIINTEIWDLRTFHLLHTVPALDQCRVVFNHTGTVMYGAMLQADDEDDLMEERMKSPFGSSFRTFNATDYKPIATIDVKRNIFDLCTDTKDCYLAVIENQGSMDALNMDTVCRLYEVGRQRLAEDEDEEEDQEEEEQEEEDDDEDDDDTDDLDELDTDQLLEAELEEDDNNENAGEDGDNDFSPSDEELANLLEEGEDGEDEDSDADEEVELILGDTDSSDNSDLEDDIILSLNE
target | temperature | SYPRO Orange fluorescence
WDR5 | 73.81 °C | 23000 a.u.
WDR5 | 82.61 °C | 47600 a.u.
DCAF1 | 70.21 °C | 55600 a.u.
DCAF1 | 61.21 °C | 46500 a.u.
DCAF1 | 59.41 °C | 37800 a.u.
WDR5 | 50.8 °C | 16600 a.u.
WDR5 | 46.2 °C | 15500 a.u.
WDR5 | 78.01 °C | 34400 a.u.

Block 2
Structure (SMILES): COc1cc(-c2nc3ccc(C(=O)NCCCN(C)C)cc3n2C2CCC2)cc(OC)c1OC
Tested at: 1 µM
target | observed | technique | baseline | remaining binding [%]
CAMK2D (Homo sapiens, UniProt Q13557) | binding | competition with immobilised ligand | – | 84
Ribosomal protein S6 kinase alpha-2, C-terminal kinase domain (RPS6KA2, Homo sapiens, UniProt Q15349) | binding | competition with immobilised ligand | – | 82
Insulin receptor (INSR, Homo sapiens, UniProt P06213) | binding | competition with immobilised ligand | – | 93
MAPK11 (Homo sapiens, UniProt Q15759) | binding | competition with immobilised ligand | – | 88
DAPK3 (Homo sapiens, UniProt O43293) | binding | competition with immobilised ligand | – | 96
SIK1 (Homo sapiens, UniProt P57059) | – | KINOMEscan | control | 100
MKNK1 (Homo sapiens, UniProt Q9BUB5) | binding | competition with immobilised ligand | – | 90
GAK (Homo sapiens, UniProt O14976) | binding | competition with immobilised ligand | – | 92
STK4 (Homo sapiens, UniProt Q13043) | binding | competition with immobilised ligand | – | 56
IRAK1 (Homo sapiens, UniProt P51617) | binding | competition with immobilised ligand | – | 70
LATS1 (Homo sapiens, UniProt O95835) | binding | competition with immobilised ligand | – | 95
DAPK2 (Homo sapiens, UniProt Q9UIK4) | binding | competition with immobilised ligand | – | 100
BRAF (Homo sapiens, UniProt P15056) | binding | competition with immobilised ligand | – | 80
KIT (Homo sapiens, UniProt P10721, L576P) | binding | competition with immobilised ligand | – | 100

Block 3
Structure (SMILES): Cc1ccc(O)c(C)c1-c1cnc2[nH]c(-c3cnc(N4CCC5(CC4)CC(N4CCN(c6ccc(N[C@H]7CCC(=O)NC7=O)cc6F)CC4)CO5)nc3)cc2c1C#N (single isomer, unassigned)
PKMYT1: Membrane-associated tyrosine- and threonine-specific cdc2-inhibitory kinase (PKMYT1, Homo sapiens, UniProt Q99640)
Chain of UniProt Q99640 (whole entry, looked up): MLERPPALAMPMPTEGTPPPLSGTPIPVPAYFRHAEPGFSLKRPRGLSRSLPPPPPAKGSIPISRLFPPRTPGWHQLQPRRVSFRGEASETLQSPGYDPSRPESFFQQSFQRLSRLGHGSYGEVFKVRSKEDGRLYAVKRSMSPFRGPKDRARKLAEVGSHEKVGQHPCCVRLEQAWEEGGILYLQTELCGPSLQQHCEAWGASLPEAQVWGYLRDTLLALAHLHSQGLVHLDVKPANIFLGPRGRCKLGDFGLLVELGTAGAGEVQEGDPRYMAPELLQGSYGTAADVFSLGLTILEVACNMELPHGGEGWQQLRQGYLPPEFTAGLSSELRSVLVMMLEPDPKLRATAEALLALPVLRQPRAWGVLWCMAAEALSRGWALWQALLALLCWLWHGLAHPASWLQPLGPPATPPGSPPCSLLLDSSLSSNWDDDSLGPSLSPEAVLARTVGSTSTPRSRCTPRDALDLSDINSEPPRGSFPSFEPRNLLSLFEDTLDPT
tested on | assay | system | conditions | degradation
PKMYT1 | degrader, automated immunoblot (Jess) | HCC1569 | 1 nM, 2 h | 12.7%
– | automated immunoblotting, refers to: PKMYT1 | mouse, HCC1569 xenograft, tumour | dose not given, 144 h | 71% and 63.1% and 49.2% and 59.4% and 73.5% and 57.8%
PKMYT1 | degrader, automated immunoblot (Jess) | – | 111.11 nM, 24 h | 86.2% and 90.1%
PKMYT1 | degrader, automated immunoblot (Jess) | HCC1569 | 100 nM, 2 h | ~60% and 65% and ~65%
PKMYT1 | degrader, automated immunoblot (Jess) | HCC1569 | 1.37 nM, 24 h | 65.7%
PKMYT1 | degrader, automated immunoblot (Jess) | HCC1569 | 0.46 nM, 24 h | 40.2%
PKMYT1 | degrader, automated immunoblot (Jess) | HCC1569 | 111.11 nM, 24 h | 90.1%
PKMYT1 | degrader, automated immunoblot (Jess) | HCC1569 | 12.35 nM, 24 h | 88%
PKMYT1 | degrader, automated immunoblot (Jess) | – | 37.04 nM, 24 h | 86.7% and 90%

Block 4
SMILES: O=C(O)C1(O)Oc2ccccc2N(Cc2ccccc2)C1=O (stereo not drawn)
organism | assay | system | conditions | scale | inhibition
Arabidopsis thaliana | root length | Col-0 | 6.25 µg/mL, 7 days, seed germination, dark | – | 7.2%
Abutilon theophrasti | fresh weight | – | 150 g ai/ha, pre-emergence treatment | – | 12.6% and 11.8% and 13.1%
Arabidopsis thaliana | root length | Col-0 | 3.13 µg/mL, 7 days, seed germination, dark | – | 9.5%
Arabidopsis thaliana | root length | Col-0, seedlings | 6.25 µg/mL | – | 3.91%
Arabidopsis thaliana | root length | Col-0 | 25.0 µg/mL, 7 days, seed germination, dark | – | 17.6%
Echinochloa crus-galli | fresh weight | – | 150 g ai/ha, post-emergence treatment | – | 26% and 28.7% and 24.2%
Zea mays | fresh weight | – | soil surface spray, 150 g ai/ha, 21 days, pre-emergence crop safety | – | 10.4% and 13.4% and 12.5%
Alopecurus japonicus | fresh weight | – | 150 g ai/ha, pre-emergence treatment | – | 68.2% and 68.6% and 65.4%
Arabidopsis thaliana | hypocotyl length | Col-0 | 50.0 µg/mL, 7 days, seed germination, dark | – | 25.1%
Arabidopsis thaliana | hypocotyl length | Col-0, seedlings | 50 µg/mL | – | 30.8%
Arabidopsis thaliana | root length | Col-0, seedlings | 12.5 µg/mL | baseline: water control | 4.59%
Triticum aestivum | fresh weight | – | soil surface spray, 150 g ai/ha, 21 days, pre-emergence crop safety | – | 17.2% and 19.4% and 18.9%
Arabidopsis thaliana | hypocotyl length | Col-0, seedlings | 3.125 µg/mL | – | 6.6%
Arabidopsis thaliana | hypocotyl length | Col-0, seedlings | 25 µg/mL | – | 28.4%
